# Measurements from different studies.
# Lines come from different studies, so protocols differ. Numbers after ± are the reported error.
Structure (SMILES),assay,test system,conditions,how to read,measurement,result
N=C(N)NCCC[C@@H]1NC(=O)[C@H](CCCCNC(=O)c2ccc(CNC34CNCCNCC(NCc5ccc(C(=O)NCCCC[C@@H]6NC(=O)[C@@H](Cc7ccc(O)cc7)NC(=O)[C@H](CC(=O)O)NC(=O)CNC(=O)[C@H](CCCNC(=N)N)NC6=O)cc5)(CNCCNC3)CNCCNC4)cc2)NC(=O)[C@@H](Cc2ccc(O)cc2)NC(=O)[C@H](CC(=O)O)NC(=O)CNC1=O [copper-64 labelled],microPET,"female athymic nude mouse, U-87 MG xenograft, U-87 MG tumour","intravenous, 20 h, with: c(RGDyK) 10 mg/kg blocking",,tumour uptake,0.13 ± 0.05 %ID/g
N=C(N)NCCC[C@@H]1NC(=O)[C@H](CCCCNC(=O)CC[C@H](NC(=O)CCOCCOCCOCCOCCNC(=O)CN2CCN(CC(=O)O)CCN(CC(=O)O)CCN(CC(=O)O)CC2)C(=O)NCCCC[C@@H]2NC(=O)[C@@H](Cc3ccccc3)NC(=O)[C@H](CC(=O)O)NC(=O)CNC(=O)[C@H](CCCNC(=N)N)NC2=O)NC(=O)[C@@H](Cc2ccccc2)NC(=O)[C@H](CC(=O)O)NC(=O)CNC1=O [indium-111 labelled],,"female athymic nude mouse, U-87 MG tumour","intravenous, 3 µCi, 4 h, U-87 MG glioma xenograft",,tumour uptake,4.8 %ID/g
N=C(N)NCCC[C@@H]1NC(=O)[C@H](CCCCNC(=O)CNC(=O)CNC(=O)CNC(=O)CC[C@H](NC(=O)c2ccc(NN=Cc3ccccc3S(=O)(=O)O)nc2)C(=O)NCC(=O)NCC(=O)NCC(=O)NCCCC[C@@H]2NC(=O)[C@@H](Cc3ccccc3)NC(=O)[C@H](CC(=O)O)NC(=O)CNC(=O)[C@H](CCCNC(=N)N)NC2=O)NC(=O)[C@@H](Cc2ccccc2)NC(=O)[C@H](CC(=O)O)NC(=O)CNC1=O [technetium-99m labelled],,"athymic nu/nu mouse, female, MDA-MB-435 xenograft","intravenous, 120 min",relative to: tumour over muscle,tumour to tissue ratio,5.57 ± 0.69
N=C(N)NCCC[C@@H]1NC(=O)[C@H](CCCCNC(=O)CCOCCOCCOCCOCCNC(=O)CC[C@H](NC(=O)CCOCCOCCOCCOCCNC(=O)CC[C@H](NC(=O)CN2CCN(CC(=O)O)CCN(CC(=O)O)CCN(CC(=O)O)CC2)C(=O)NCCOCCOCCOCCOCCC(=O)N[C@@H](CCC(=O)NCCOCCOCCOCCOCCC(=O)NCCCC[C@@H]2NC(=O)[C@@H](Cc3ccccc3)NC(=O)[C@H](CC(=O)O)NC(=O)CNC(=O)[C@H](CCCNC(=N)N)NC2=O)C(=O)NCCOCCOCCOCCOCCC(=O)NCCCC[C@@H]2NC(=O)[C@@H](Cc3ccccc3)NC(=O)[C@H](CC(=O)O)NC(=O)CNC(=O)[C@H](CCCNC(=N)N)NC2=O)C(=O)NCCOCCOCCOCCOCCC(=O)NCCCC[C@@H]2NC(=O)[C@@H](Cc3ccccc3)NC(=O)[C@H](CC(=O)O)NC(=O)CNC(=O)[C@H](CCCNC(=N)N)NC2=O)NC(=O)[C@@H](Cc2ccccc2)NC(=O)[C@H](CC(=O)O)NC(=O)CNC1=O [indium-111 labelled],,female athymic nude mouse,"intravenous, 3 µCi, 24 h, U-87 MG glioma xenograft",relative to: tumour over muscle,tumour to muscle ratio,13.1 ± 2.85
CC(C)C[C@H](NC(=O)C[C@H](O)[C@H](CC(C)C)NC(=O)[C@H](Cc1c[nH]cn1)NC(=O)CNC(=O)[C@@H](NC(=O)[C@H](C)NC(=O)[C@H](Cc1c[nH]c2ccccc12)NC(=O)[C@H](CCC(N)=O)NC(=O)[C@@H](Cc1ccccc1)NC(=O)c1ccc(NC(=O)CNC(=O)CCC(C(=O)O)N2CCN(CC(=O)O)CCN(CC(=O)O)CC2)cc1)C(C)C)C(N)=O (some centres unmarked) [copper-64 labelled],PET imaging,"mouse, PC-3 xenograft","intravenous, 4 h, 64Cu-labelled",,tumour uptake,3.5 ± 1 %ID/g
N=C(N)NCCC[C@@H]1NC(=O)[C@H](CCCCNC(=O)CCOCCOCCOCCOCCNC(=O)CC[C@H](NC(=O)CCOCCOCCOCCOCCNC(=O)CN2CCN(CC(=O)O)CCN(CC(=O)O)CCN(CC(=O)O)CC2)C(=O)NCCOCCOCCOCCOCCC(=O)NCCCC[C@@H]2NC(=O)[C@@H](Cc3ccccc3)NC(=O)[C@H](CC(=O)O)NC(=O)CNC(=O)[C@H](CCCNC(=N)N)NC2=O)NC(=O)[C@@H](Cc2ccccc2)NC(=O)[C@H](CC(=O)O)NC(=O)CNC1=O [copper-64 labelled],ex vivo biodistribution,"female athymic nude mouse, U-87 MG xenograft",240 min post injection,,tumour to kidney ratio,2.28 ± 0.31
N=C(N)NCCC[C@@H]1NC(=O)[C@H](CCCCNC(=O)CNC(=O)CNC(=O)CNC(=O)c2ccc(NN=Cc3ccccc3S(=O)(=O)O)nc2)NC(=O)[C@@H](Cc2ccccc2)NC(=O)[C@H](CC(=O)O)NC(=O)CNC1=O [technetium-99m labelled],,"athymic nu/nu mouse, female, U-87 MG glioma xenograft","intravenous, 120 min",relative to: tumour over liver,tumour to tissue ratio,1.4 ± 0.16
C[C@@H]1NC(=O)[C@H](CCC(=O)O)NC(=O)CNC(=O)[C@H](CC(=O)O)NC(=O)CNC(=O)[C@H](CCCCNC(=O)CCCCCNC(=O)[C@H](CS)NC(=O)CCCCCNC(=O)CN2CCN(CC(=O)O)CCN(CC(=O)O)CCN(CC(=O)O)CC2)NC(=O)[C@@H](Cc2ccc(O)cc2)NC1=O [gallium-68 labelled],,"mouse, intratibial A549",dose not given,,tumour to muscle ratio,2.3 ± 0.17
CSCC[C@H](NC(=O)[C@H](CC(C)C)NC(=O)[C@H](Cc1cnc[nH]1)NC(=O)CNC(=O)[C@@H](NC(=O)[C@H](C)NC(=O)[C@H](Cc1c[nH]c2ccccc12)NC(=O)[C@H](CCC(N)=O)NC(=O)CCCCCCCNC(=O)CN1CCN(CC(=O)O)CCN(CC(=O)O)CCN(CC(=O)O)CC1)C(C)C)C(N)=O [lutetium-177 labelled],,"mouse PC-3 xenograft, tumour",,relative to: 177Lu-labelled over 111In-labelled,tumour retention ratio,1.7 to 2.8
CC(C)C[C@H](NC(=O)[C@@H]1CCCN1C(=O)[C@H](CCCCN)NC(=O)[C@@H](N)CO)C(=O)N1CCC[C@H]1C(=O)N[C@@H](CCC(=O)O)C(=O)N[C@H](C(=O)N[C@H](C(=O)N[C@@H](CC(=O)O)C(=O)N[C@@H](CCC(=O)O)C(=O)N[C@@H](Cc1ccc(O)cc1)C(=O)N[C@@H](Cc1cn(CCOCCOCCOCCNC(=O)CCc2ccc(O)c(CN(CCN(CC(=O)O)Cc3cc(CCC(=O)NCCCC[C@H](NC(=O)N[C@@H](CCC(=O)O)C(=O)O)C(=O)O)ccc3O)CC(=O)O)c2)nn1)C(=O)O)[C@@H](C)O)C(C)C [gallium-68 labelled],PET,"NMRI nu/nu mouse, LNCaP xenograft","intravenous, 15 MBq, 0.52 nmol, 60 to 120 min",,tumour SUVmax,1.6 g/mL
N=C(N)NCCC[C@@H]1NC(=O)[C@H](CCCCNC(=O)CCOCCOCCOCCOCCNC(=O)CN2CCN(CC(=O)O)CCN(CC(=O)O)CCN(CC(=O)O)CC2)NC(=O)[C@@H](Cc2ccccc2)NC(=O)[C@H](CC(=O)O)NC(=O)CNC1=O [indium-111 labelled],,"female athymic nude mouse, U-87 MG tumour","intravenous, 3 µCi, 0.5 h, U-87 MG glioma xenograft",,tumour uptake,3.7 %ID/g

# Repeated from above:
Structure (SMILES),assay,test system,conditions,how to read,measurement,result
N=C(N)NCCC[C@@H]1NC(=O)[C@H](CCCCNC(=O)CCOCCOCCOCCOCCNC(=O)CN2CCN(CC(=O)O)CCN(CC(=O)O)CCN(CC(=O)O)CC2)NC(=O)[C@@H](Cc2ccccc2)NC(=O)[C@H](CC(=O)O)NC(=O)CNC1=O [indium-111 labelled],,"female athymic nude mouse, U-87 MG tumour","intravenous, 3 µCi, 0.5 h, U-87 MG glioma xenograft",,tumour uptake,3.7 %ID/g
CC(C)C[C@H](NC(=O)C[C@H](O)[C@H](CC(C)C)NC(=O)[C@H](Cc1c[nH]cn1)NC(=O)CNC(=O)[C@@H](NC(=O)[C@H](C)NC(=O)[C@H](Cc1c[nH]c2ccccc12)NC(=O)[C@H](CCC(N)=O)NC(=O)[C@@H](Cc1ccccc1)NC(=O)c1ccc(NC(=O)CNC(=O)CCC(C(=O)O)N2CCN(CC(=O)O)CCN(CC(=O)O)CC2)cc1)C(C)C)C(N)=O (some centres unmarked) [copper-64 labelled],PET imaging,"mouse, PC-3 xenograft","intravenous, 4 h, 64Cu-labelled",,tumour uptake,3.5 ± 1 %ID/g
